Measured values pooled from the literature.
A part holds a random share of what one study measured.
UniProt Q8NE63, sequence (whole entry, looked up): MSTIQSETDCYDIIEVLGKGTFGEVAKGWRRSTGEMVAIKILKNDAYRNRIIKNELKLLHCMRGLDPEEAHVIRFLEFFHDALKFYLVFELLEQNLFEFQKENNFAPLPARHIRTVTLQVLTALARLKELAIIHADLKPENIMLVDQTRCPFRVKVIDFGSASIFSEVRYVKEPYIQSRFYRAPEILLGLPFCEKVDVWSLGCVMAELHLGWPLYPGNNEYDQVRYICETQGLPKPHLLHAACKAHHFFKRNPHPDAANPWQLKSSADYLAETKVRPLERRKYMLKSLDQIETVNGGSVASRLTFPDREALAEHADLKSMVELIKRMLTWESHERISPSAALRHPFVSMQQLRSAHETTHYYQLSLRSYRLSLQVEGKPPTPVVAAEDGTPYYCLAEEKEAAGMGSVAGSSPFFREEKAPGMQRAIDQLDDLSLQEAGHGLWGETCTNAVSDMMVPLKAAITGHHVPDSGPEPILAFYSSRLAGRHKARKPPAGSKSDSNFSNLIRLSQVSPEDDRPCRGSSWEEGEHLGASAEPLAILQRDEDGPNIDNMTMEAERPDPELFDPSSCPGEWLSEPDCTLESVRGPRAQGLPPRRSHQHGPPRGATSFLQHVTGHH
UniProt O75716, sequence (whole entry, looked up): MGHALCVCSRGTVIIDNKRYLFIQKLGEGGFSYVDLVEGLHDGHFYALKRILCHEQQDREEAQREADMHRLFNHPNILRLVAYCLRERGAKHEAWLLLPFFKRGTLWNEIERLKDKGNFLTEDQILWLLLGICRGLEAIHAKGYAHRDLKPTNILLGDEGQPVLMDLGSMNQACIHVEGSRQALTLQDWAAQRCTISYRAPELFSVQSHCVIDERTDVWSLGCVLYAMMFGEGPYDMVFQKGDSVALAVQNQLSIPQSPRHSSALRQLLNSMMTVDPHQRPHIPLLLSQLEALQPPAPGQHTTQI
UniProt O43781, sequence (whole entry, looked up): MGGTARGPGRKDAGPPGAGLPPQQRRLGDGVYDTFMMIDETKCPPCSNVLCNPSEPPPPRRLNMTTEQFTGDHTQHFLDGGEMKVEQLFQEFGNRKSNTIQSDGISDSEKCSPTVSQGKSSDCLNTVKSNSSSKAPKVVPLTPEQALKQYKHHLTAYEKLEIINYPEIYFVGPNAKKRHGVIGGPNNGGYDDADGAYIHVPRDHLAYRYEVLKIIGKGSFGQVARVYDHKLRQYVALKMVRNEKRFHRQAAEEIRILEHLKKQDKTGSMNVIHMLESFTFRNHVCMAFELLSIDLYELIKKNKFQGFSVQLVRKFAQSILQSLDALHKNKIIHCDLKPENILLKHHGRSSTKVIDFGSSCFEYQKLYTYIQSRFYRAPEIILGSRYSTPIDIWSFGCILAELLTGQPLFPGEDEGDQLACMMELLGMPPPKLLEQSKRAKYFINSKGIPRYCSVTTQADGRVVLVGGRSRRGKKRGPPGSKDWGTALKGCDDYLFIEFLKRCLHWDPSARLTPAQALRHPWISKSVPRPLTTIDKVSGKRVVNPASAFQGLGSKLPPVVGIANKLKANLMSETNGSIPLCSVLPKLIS
UniProt Q16644, sequence (whole entry, looked up): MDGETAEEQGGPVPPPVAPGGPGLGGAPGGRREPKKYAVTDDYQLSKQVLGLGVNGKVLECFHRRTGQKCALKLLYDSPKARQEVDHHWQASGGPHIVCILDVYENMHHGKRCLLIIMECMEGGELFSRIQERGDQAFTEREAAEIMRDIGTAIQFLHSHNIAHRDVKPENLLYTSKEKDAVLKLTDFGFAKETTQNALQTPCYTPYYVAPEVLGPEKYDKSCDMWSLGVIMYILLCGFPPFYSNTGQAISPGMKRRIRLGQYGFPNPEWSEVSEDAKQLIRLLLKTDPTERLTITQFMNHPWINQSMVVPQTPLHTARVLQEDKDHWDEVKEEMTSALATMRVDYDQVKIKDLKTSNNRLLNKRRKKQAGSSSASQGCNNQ
UniProt O15530, sequence (whole entry, looked up): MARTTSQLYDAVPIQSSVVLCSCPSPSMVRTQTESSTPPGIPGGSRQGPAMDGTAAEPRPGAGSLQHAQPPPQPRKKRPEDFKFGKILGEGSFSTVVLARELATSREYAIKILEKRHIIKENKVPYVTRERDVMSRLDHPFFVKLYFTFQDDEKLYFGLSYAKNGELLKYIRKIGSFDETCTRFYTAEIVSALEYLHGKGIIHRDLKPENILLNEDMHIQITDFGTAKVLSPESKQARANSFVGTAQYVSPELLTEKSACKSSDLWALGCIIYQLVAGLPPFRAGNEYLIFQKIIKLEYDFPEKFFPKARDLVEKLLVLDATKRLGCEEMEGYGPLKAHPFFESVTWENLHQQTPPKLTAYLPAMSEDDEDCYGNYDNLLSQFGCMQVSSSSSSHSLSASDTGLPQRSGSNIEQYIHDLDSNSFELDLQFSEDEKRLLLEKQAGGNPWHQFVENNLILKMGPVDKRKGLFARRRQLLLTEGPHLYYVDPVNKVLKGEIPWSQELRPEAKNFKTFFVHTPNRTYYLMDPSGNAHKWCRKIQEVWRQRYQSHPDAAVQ
UniProt P06493, sequence (whole entry, looked up): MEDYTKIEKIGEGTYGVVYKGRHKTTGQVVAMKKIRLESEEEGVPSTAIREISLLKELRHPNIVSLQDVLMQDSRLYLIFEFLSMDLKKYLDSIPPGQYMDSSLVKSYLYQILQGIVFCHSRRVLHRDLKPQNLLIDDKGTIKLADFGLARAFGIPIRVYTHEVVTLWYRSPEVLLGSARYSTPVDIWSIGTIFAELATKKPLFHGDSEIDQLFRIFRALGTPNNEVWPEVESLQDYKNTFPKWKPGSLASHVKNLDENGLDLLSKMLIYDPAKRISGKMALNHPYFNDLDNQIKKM
UniProt O95819, sequence (whole entry, looked up): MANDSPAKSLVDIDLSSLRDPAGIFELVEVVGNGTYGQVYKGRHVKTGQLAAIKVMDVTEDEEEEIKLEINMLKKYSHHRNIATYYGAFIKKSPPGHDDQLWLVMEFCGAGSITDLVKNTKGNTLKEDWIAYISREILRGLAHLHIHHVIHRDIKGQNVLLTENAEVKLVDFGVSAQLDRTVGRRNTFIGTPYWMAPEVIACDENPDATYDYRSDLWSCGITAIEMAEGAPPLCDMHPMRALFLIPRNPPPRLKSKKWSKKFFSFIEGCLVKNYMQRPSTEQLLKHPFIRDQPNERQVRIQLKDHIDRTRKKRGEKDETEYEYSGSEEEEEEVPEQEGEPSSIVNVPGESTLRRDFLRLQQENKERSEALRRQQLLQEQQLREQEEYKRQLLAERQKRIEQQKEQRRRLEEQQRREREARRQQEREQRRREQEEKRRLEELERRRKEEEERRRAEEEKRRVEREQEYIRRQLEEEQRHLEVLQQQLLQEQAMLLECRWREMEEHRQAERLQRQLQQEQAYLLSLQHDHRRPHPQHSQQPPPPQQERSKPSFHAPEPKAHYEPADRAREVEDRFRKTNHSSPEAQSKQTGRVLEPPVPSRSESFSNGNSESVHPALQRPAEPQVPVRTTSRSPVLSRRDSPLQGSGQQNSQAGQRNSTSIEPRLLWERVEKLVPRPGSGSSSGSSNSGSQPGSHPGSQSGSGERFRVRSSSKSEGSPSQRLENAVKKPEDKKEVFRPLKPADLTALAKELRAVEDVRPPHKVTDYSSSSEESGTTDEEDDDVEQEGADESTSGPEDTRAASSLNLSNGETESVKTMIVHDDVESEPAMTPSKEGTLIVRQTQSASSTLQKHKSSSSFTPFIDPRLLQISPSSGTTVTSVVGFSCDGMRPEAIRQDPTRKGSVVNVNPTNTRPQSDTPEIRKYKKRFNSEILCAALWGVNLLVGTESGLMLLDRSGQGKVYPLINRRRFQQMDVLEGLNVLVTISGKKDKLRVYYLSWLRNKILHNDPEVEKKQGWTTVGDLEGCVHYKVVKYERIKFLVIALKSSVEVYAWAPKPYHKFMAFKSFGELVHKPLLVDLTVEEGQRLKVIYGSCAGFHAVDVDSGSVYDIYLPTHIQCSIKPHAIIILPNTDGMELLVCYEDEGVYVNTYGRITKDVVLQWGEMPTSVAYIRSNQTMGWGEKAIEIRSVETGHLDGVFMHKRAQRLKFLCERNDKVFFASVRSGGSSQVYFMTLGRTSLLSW
UniProt Q9UEE5, sequence (whole entry, looked up): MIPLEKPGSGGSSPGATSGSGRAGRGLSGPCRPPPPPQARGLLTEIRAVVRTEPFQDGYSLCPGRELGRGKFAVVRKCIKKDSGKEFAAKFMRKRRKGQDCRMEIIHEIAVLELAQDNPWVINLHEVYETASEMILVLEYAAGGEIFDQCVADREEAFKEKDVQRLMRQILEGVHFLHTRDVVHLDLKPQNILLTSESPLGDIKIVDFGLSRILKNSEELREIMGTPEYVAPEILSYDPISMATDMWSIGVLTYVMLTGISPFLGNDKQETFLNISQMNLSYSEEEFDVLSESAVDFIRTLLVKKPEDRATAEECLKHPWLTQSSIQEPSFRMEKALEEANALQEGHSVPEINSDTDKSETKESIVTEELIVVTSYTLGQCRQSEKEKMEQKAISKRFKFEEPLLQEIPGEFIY

Set 1 — method: RNA Bind-n-Seq; form: RNA; sample: in vitro; concentration: 20 nM; notes: 6-mer, flanks averaged, single round; with: 150 mM LiCl; relative to: input library; reading: higher = stronger binding
Target: TAR DNA-binding protein 43, full length, His tag (TARDBP, Homo sapiens, UniProt Q13148, residues 1-414)
| Sequence | 6-mer enrichment (R) |
| --- | --- |
| UAAGCA | 0.86 |
| UAGCUA | 0.872 |
| ACUUGC | 0.89 |
| CCUGGA | 0.885 |
| CGAAAG | 0.815 |
| CCUCAA | 0.877 |
| AAUCGU | 0.896 |
| UUUGAC | 0.974 |

Set 2 — effect on: enzyme activity; mode: inhibitor; concentration: 0.5 µM; relative to: control
SMILES: O=C1NC(=O)c2c1c1c3ccccc3[nH]c1c1[nH]c3cc(Br)ccc3c21
| target | remaining activity [%] |
| --- | --- |
| PDPK1 (Homo sapiens, UniProt O15530) | 66.1 |
| STK17A (Homo sapiens, UniProt Q9UEE5) | 29.5 |
| HIPK4 (Homo sapiens, UniProt Q8NE63) | 94.1 |
| MAPKAPK3 (Homo sapiens, UniProt Q16644) | 118 |
| Cyclin-dependent kinase 4, with cyclin D3 (CDK4, Homo sapiens, UniProt P11802) | 21.1 |
| Cyclin-dependent kinase 1, with cyclin B (CDK1, Homo sapiens, UniProt P06493) | 47.8 |
| EPHB4 (Homo sapiens, UniProt P54760) | 86.5 |
| EPHB1 (Homo sapiens, UniProt P54762) | 95.5 |
| HIPK2 (Homo sapiens, UniProt Q9H2X6) | 107 |
| EPHA4 (Homo sapiens, UniProt P54764) | 91.3 |
| WNK3 (Homo sapiens, UniProt Q9BYP7) | 92.3 |
| MAP4K4 (Homo sapiens, UniProt O95819) | 29.3 |
| BLK (Homo sapiens, UniProt P51451) | 83.9 |
| AXL (Homo sapiens, UniProt P30530) | 82.9 |
| RPS6KA6 (Homo sapiens, UniProt Q9UK32) | 32.4 |
| STK16 (Homo sapiens, UniProt O75716) | 87.2 |
| DYRK3 (Homo sapiens, UniProt O43781) | 94.5 |
| TSSK2 (Homo sapiens, UniProt Q96PF2) | 96.9 |

Set 3 — effect on: ligand displacement; concentration: 10 µM
Target: Histamine H4 receptor (HRH4, Homo sapiens, UniProt Q9H3N8)
UniProt Q9H3N8, sequence (whole entry, looked up): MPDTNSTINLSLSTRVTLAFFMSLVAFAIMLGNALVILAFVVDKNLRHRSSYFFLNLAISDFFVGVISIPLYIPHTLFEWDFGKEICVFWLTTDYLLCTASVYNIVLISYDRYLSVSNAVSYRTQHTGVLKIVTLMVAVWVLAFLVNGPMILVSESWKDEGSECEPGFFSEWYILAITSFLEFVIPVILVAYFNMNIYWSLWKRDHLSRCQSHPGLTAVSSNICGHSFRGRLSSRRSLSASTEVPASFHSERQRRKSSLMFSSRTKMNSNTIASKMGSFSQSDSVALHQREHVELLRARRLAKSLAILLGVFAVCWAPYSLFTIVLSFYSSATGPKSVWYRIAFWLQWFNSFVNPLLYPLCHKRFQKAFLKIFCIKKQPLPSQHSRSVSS
| SMILES | inhibition [%] |
| --- | --- |
| COc1cccc(NC(=O)c2nc3scc(CN(C)Cc4ccccc4)c3c(=O)[nH]2)c1 | 21 |
| COc1cc(-c2cn(C3CCc4c(F)cccc4N(CC(F)(F)F)C3=O)nn2)ccc1-n1cnc(C)c1 (centres unmarked) | -2.49 |
| CC(=O)N1CCC(c2ccc(C(=O)NC3=NCCN3)cc2C(F)(F)F)CC1 | 9.81 |
| Cn1cc(Cl)c2c(Oc3c(F)cc(Nc4cc(Cl)nc(N)n4)cc3F)ccnc21 | -9.04 |
| O=S(=O)(NC1CCC(c2cc(F)ccc2F)(S(=O)(=O)c2ccc(Cl)cc2)CC1)C(F)(F)F (centres unmarked) | -14.7 |
| CN(C)c1ncnc(-c2ccc3nc(Nc4cc(CN5CCN(C(=O)CC(F)(F)F)CC5)ccn4)[nH]c3c2)c1Cl | -2.29 |
| O=C(NS(=O)(=O)c1ccc(NCC2CCOCC2)c([N+](=O)[O-])c1)c1ccc(N2CCN(Cc3ccc(C(F)(F)F)cc3-c3ccc(Cl)cc3)CC2)cc1Oc1cnc2[nH]ccc2c1 | -2.4 |
| CNC(=N)NCCC[C@H](NC(=O)[C@H](CC(C)C)NC(=O)NNC(=O)[C@H](Cc1ccccc1)NC(=O)[C@H](CO)NC(=O)[C@H](CC(N)=O)NC(=O)[C@@H](Cc1ccncc1)NC(=O)[C@H](N)Cc1ccc(O)cc1)C(=O)N[C@@H](Cc1ccccc1)C(N)=O | 10.4 |
| CN(C)CC#Cc1ccc(OCCCc2sc(N3CCc4cccc(C(=O)Nc5nc6ccccc6s5)c4C3)nc2C(=O)O)c(F)c1 | 6.5 |
| CN([C@@H]1CCc2c(CC(=O)O)c3ccccc3n2C1)S(=O)(=O)c1ccc(F)cc1 | 25.9 |
| O=C(NCCCC1CCCCC1)c1ccc(CNC(=O)c2cnn(-c3ccccc3)c2C(F)(F)F)cc1 | -25.6 |
| CN(C)C(=O)c1sc2nc(N3CCC(S(C)(=O)=O)CC3)cc(C(F)(F)F)c2c1N | -16.7 |
| c1ccc(N2CCN(Cc3nc4ccccc4[nH]3)CC2)nc1 | -3.28 |
| C[C@@H](c1cccc(C#N)c1)n1cc(Cl)cc(C(N)=O)c1=N | 0.47 |

Mixed results
| Molecule | organism | test | conditions | quantity | result |
| --- | --- | --- | --- | --- | --- |
| medroxyprogesterone | Sarcocystis neurona | parasite growth | 10 µM | inhibition | 13.7% |
